Measurements collected from several papers.
Lines come from different studies, so protocols differ.
Organism: Mycobacterium tuberculosis

SMILES	test	system	setting	MIC
COc1ccc(C(CC(=O)c2cccc(Oc3ccccc3)c2)C(N)=O)cc1 (centres unmarked)	microbial growth, resazurin	H37RV		> 100 µg/mL
O=C1c2ccccc2C(=O)N1c1ccccc1Br	microbial growth	H37RV		> 200 µM
CC(=O)NC1C(OC2OC(CC(O)C3OC(n4ccc(=O)[nH]c4=O)C(O)C3O)C(O)C(O)C2NC(=O)C=CCCCCCCCCCC(C)C)OC(CO)C(O)C1O (centres unmarked)		H37Rv		> 50 µg/mL
CC(C)c1ccc(C=CC(=O)c2ccc(-n3cccc3)cc2)cc1	microbial growth, resazurin	H37RV	7 days	12.5 µg/mL
CCOC(=O)/C=C1/SC(N/N=C/c2c(-c3ccc(Br)cc3)nc3ncccn23)=NC1=O	MABA	H37Rv ATCC 27294		25 µg/mL
Cc1[nH]c(=O)c(CNC(=O)c2ccc(C(F)(F)F)nc2)c2c1CCCC2	microbial growth, resazurin	H37RV		1.2 to 3 µg/mL
CC(C)=CCC/C(C)=C/CC/C(C)=C/CNCCOC1C2CC3CC(C2)CC1C3 (centres unmarked)		H37Rv		0.39 µg/mL
CCOC(=O)c1sc(N/N=C/c2c(-c3ccc(OC)cc3)nc3ncccn23)nc1C	MABA	H37Rv ATCC 27294		1.6 µg/mL
Cc1cccc(-c2nc(Nc3ccncn3)c3sccc3n2)n1	microbial growth, resazurin	H37RV		0.47 µM
O=c1nc(N2CCC(Oc3ccccc3C(F)(F)F)CC2)sc2c([N+](=O)[O-])cc(C(F)(F)F)cc12	microbial growth	H37RA		0.004 µM
CCOC(=O)c1sc(N/N=C/c2c(-c3ccc(Cl)cc3)nc3ncccn23)nc1C	MABA	H37Rv ATCC 27294		6.25 µg/mL
C#CCN(Cc1ccc2[nH]c(C)nc(=O)c2c1)c1ccc(C(=O)N[C@@H](CCC(=O)O)C(=O)O)cc1		pptT knockdown with ATc		> 100 µM
CCOC(=O)/C=C1/SC(N/N=C/c2c(-c3ccc(C)cc3)nc3ncccn23)=NC1=O	MABA	H37Rv ATCC 27294		12.5 µg/mL
NC(=O)C(CC(=O)c1cccc(Oc2ccccc2)c1)c1ccc(F)cc1 (centres unmarked)	microbial growth, resazurin	H37RV		50 µg/mL
CCOC(=O)c1sc(N/N=C/c2c(-c3ccc(Br)cc3)nc3ncccn23)nc1C	MABA	H37Rv ATCC 27294		6.25 µg/mL
CCc1ccc([C@@H]2C[C@H](C(F)(F)F)n3ncc(C(=O)NCc4ccc(OC)cc4)c3N2)cc1	microbial growth, resazurin	H37RV		0.25 µM
Cc1ccc(CNC(=O)Cc2c(C)nc3ccc(C)cn23)cc1	microbial growth	H37RV	5 days	2 µM
C#CCN(Cc1ccc2nc(N)nc(N)c2c1)c1ccc(C(=O)N[C@@H](CCC(=O)OCC)C(=O)OCC)cc1		pptT knockdown with ATc		< 0.1 µM
O=c1nc(N2CCC(Oc3c(F)cccc3F)CC2)sc2c([N+](=O)[O-])cc(C(F)(F)F)cc12	microbial growth	H37RA		0.125 µM
c1cc2c(s1)CCOC21CCN(Cc2ccc3c(c2)OCCO3)CC1	microbial growth, resazurin	H37RV		0.38 µM
Cc1cc(C)c2cc(C(=O)NC3CCCCCCC3)[nH]c2c1	microbial growth	H37RV		0.0039 µg/mL
C#CCN(Cc1ccc2nc(N)nc(N)c2c1)c1ccc(C(=O)N[C@@H](CCC(=O)O)C(=O)O)cc1		pptT knockdown with ATc		3.7 µM
Nc1nc(-c2ccc(-n3cccc3)cc2)cc(-c2ccc(Cl)cc2Cl)n1	microbial growth, resazurin	H37RV	7 days	6.25 µg/mL
N#Cc1cc(C(=O)c2ccc3ccccc3c2O)c[nH]c1=O	Microplate Alamar Blue	RCMB 010126		15.6 µg/mL
CCOC(=O)/C=C1/SC(N/N=C/c2c(-c3ccc(Cl)cc3)nc3ncccn23)=NC1=O	MABA	H37Rv ATCC 27294		25 µg/mL

SMILES	test	system	setting	MIC
Cc1nc(=O)c2cc(CN(C)c3cccc(C(=O)N[C@@]4(C(=O)O)CCC[C@H](C(=O)O)C4)c3)ccc2[nH]1		pptT knockdown with ATc		26.4 µM
Cc1ccc2nc(C)c(CC(=O)NCc3ccc(N(C)C)cc3)n2c1		H37Rv, replicating		1 to 3 µM
COc1ccc(-c2cc(=O)c3c(O)c(OC)c(O)cc3o2)cc1	microbial growth	ATCC27294 H37RV		250 µg/mL
CC1C(=NOCc2cc(-c3ccc(Cl)cc3)no2)C(C)C(c2ccc(Cl)cc2)OC1c1ccc(Cl)cc1 (centres unmarked)	microbial growth, resazurin	H37RV		3.12 µg/mL
CCOC(=O)C(CC)N1CCN(c2nc(=O)c3cc(C(F)(F)F)cc([N+](=O)[O-])c3s2)CC1 (centres unmarked)	microbial growth	H37RA		0.031 µM
Cc1ccc2nc(C)c(C(=O)NCc3ccccc3)n2c1	microbial growth	H37RV	5 days	0.006 µM
Cc1cc(C)c2cc(C(=O)NC3CCCCCC3)[nH]c2c1	microbial growth	H37RV		0.0156 to 0.0313 µg/mL
Cc1ccc(C2OC(c3ccc(C)cc3)C(C)C(=NOCc3cn(-c4ccccc4)nn3)C2C)cc1 (centres unmarked)	microbial growth, resazurin	H37RV		6.25 µg/mL
CO[C@H]1[C@@H](O)[C@H](n2ccc(=O)[nH]c2=O)O[C@@H]1[C@@H](O[C@H]1OC(C(=O)N[C@H]2N=C(c3ccccc3)c3ccccc3NC2=O)=C[C@H](O)[C@@H]1O)C(N)=O	microbial growth, resazurin	H37RV		2.5 µg/mL
CC(=O)c1sc(N/N=C/c2c(-c3ccc(C#N)cc3)nc3ncccn23)nc1C	MABA	H37Rv ATCC 27294		6.25 µg/mL
CC1=CC2(C)C(=C(C)C3C4CC(C)CC(C)C4C4Oc5ccc(cc5)CC5(O)NC(=O)C(=C(O)C2C43)C5Nc2ncnc3c2ncn3C2OC(CO)C(O)C2O)C1C (centres unmarked)	microbial growth, resazurin	H37RV		> 100 µM
CC(C)=CCNCCOC1C2CC3CC(C2)CC1C3 (centres unmarked)		H37Rv		3.1 µg/mL
Cc1c(CN2CCN(C)CC2)cc(-c2ccc(Cl)cc2)n1-c1ccc(Cl)cc1	microbial growth	H37RV		2 µg/mL
COC(=O)[C@H](CCCNC(=O)OC(C)(C)C)NC(=O)c1ccc(NCc2ccc3nc(N)nc(N)c3c2Cl)cc1		pptT knockdown with ATc		< 0.1 µM
CCc1ccn2c(C(=O)N(C)Cc3ccccc3)c(C)nc2c1		H37Rv, replicating		16 to 37 µM
COc1cccc(C=CC(=O)c2ccc(-n3cccc3)cc2)c1O	microbial growth, resazurin	H37RV	7 days	3.12 µg/mL
CCOC(=O)c1sc(N/N=C/c2c(-c3ccc(C#N)cc3)nc3ncccn23)nc1C	MABA	H37Rv ATCC 27294		12.5 µg/mL
CC1C(=NOCc2cc(-c3ccc(Cl)cc3)no2)C(C)C(c2ccc(Br)cc2)OC1c1ccc(Br)cc1 (centres unmarked)	microbial growth, resazurin	H37RV		3.12 µg/mL
O=C(Cc1csc2nc(-c3ccc(Br)cc3)cn12)NN=C1CCCC1		H37Rv		16300 µg/mL
Cc1cc(C2CC2)[nH]c(=O)c1CNC(=O)c1ccc(C(F)(F)F)nc1	microbial growth, resazurin	H37RV		> 20 µg/mL
Cc1ccc2nc(C)c(C(=O)NCc3cccs3)n2c1	microbial growth, resazurin	H37RV		0.19 µM
O=C1C(O)=C(I)C(=O)c2ccccc21	resazurin microplate	H37Rv	7 days + 24 h	> 147 µM
CNc1nc(SC)nc2ccccc12	microbial growth, resazurin	H37RV		0.13 µM
Cc1ccc(CNC(=O)C(=O)c2c(C)nc3ccc(C)cn23)cc1		H37Rv, replicating		2 to 4 µM
Nc1nc(-c2ccc(-n3cccc3)cc2)cc(-c2c(Cl)cccc2Cl)n1	microbial growth, resazurin	H37RV	7 days	12.5 µg/mL

A few entries again:
SMILES	test	system	setting	MIC
O=c1nc(N2CCC(Oc3c(F)cccc3F)CC2)sc2c([N+](=O)[O-])cc(C(F)(F)F)cc12	microbial growth	H37RA		0.125 µM
c1cc2c(s1)CCOC21CCN(Cc2ccc3c(c2)OCCO3)CC1	microbial growth, resazurin	H37RV		0.38 µM
Cc1cc(C)c2cc(C(=O)NC3CCCCCCC3)[nH]c2c1	microbial growth	H37RV		0.0039 µg/mL
C#CCN(Cc1ccc2nc(N)nc(N)c2c1)c1ccc(C(=O)N[C@@H](CCC(=O)O)C(=O)O)cc1		pptT knockdown with ATc		3.7 µM
Nc1nc(-c2ccc(-n3cccc3)cc2)cc(-c2ccc(Cl)cc2Cl)n1	microbial growth, resazurin	H37RV	7 days	6.25 µg/mL
